Results of several laboratories.
Numbered parts are unrelated; each lists some results of a single study. Positions count from the first letter of the parent shown.

Block 1
Target: RNA binding protein fox-1 homolog 2, RRM domain, GST-SBP tag (RBFOX2, Homo sapiens, UniProt O43251-10, residues 100-194)
Technique: RNA Bind-n-Seq
Molecule type: RNA
Sample: in vitro
Concentration: 365 nM
Notes: natural RNA segment, single round, ends assumed
Reference: no-protein control
Reading: higher = stronger binding
Shared flanks, not repeated: GGGAGUUCUACAGUCCGACGAUC … UGGAAUUCUCGGGUGCCAA
Construct (chain): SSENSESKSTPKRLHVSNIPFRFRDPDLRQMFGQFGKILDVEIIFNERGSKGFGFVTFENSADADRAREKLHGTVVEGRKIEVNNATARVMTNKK
| Oligonucleotide | RBNS enrichment (R) |
| --- | --- |
| AAAGUUAUUUGUGUUCAACUGACAUUUAACGCUCUCUCCCCAACUUCCUCCCGGCCCUGUGGGCCAGGGAGGGGCGUUGGAAACAGCACUUUAUAUUUAUAUAGAACAUU | 0.346 |
| UUUCGGUUUUUGGAAAGGGAUCCAUCUCCAGGCAGCCCACCCUGGUGGGGCUUGUUUCCUGAAACCAUGAUGUACUUUUUCAUACAUGAGUCUGUCCAGAGUGCUUGCUA | 0.324 |
| GGUACUUGUGUACUUGUACAUAAAACCAAAAUUAUAGUUGGGAAAAAAAUAAAUUUAUAUAUGAAAAUGUCAAAAUCAUUUUAAAAGUAUUAUUUUCAAAUAAAAUGGAG | 0.778 |
| GUUAUCUAAGCUUCGUUAAUAGAUUUCUUAAUAUCAUCCAAUGUUUGGUGUUAUCUGCAUUGUUUUUUUUUUUAAAUUGUGGUUGUUCUGAUGUGUGAAAUUUAAGGAAA | 2.07 |
| UGGUCUCCUACUCUCUGGCCCUGUGUUUGGGAAAAAUCACUAUUAUGUCUUAAUUCUUUGCCUGUGGGUAAGUGAGAGAAUGGCUGCCAGUAGUUGUUGGAGACCUGGUA | 0.478 |
| CUCUCACCCCAACCCCCCCAAAACUUUGAACCUAAAUAACCCCUCCCCCAUCCUAAUCAGAGUCAGCACAGCUUUCCUGUCAGAGGAUAGGAACACUUGCUCUUUGAGCC | 0.778 |
| ACCAACAUGGAGAAACCCUGUCUCUAUUAAAAAUACAAAAAAAAAAAAAAAAAAAAUAGCCGGGCAUGGUGGCGCAAGCCUGUAAUCCCAGCUACUCAGGAGGCUGAGGC | 1.43 |
| UGUAUGGCUACCGGAAACAGGUGGGUCACCUCCUGCAAGAAGUGGGGCCUCGAGCUGUCAGUCAUCAUGGUGCUAUCCUCUGAACCCCUCAGCUGCCACUGCAACAGUGG | 0.188 |

Block 2
Target: CCNE1, cyclin fold, Cln2 fusion (human)
Technique: yeast growth competition, sequencing
Sample: yeast
Notes: strong parent motif
Reference: not given
Reading: higher = stronger binding
Starting sequence: PKMYT1 docking peptide (human); SFEPRNLLSLFED; partner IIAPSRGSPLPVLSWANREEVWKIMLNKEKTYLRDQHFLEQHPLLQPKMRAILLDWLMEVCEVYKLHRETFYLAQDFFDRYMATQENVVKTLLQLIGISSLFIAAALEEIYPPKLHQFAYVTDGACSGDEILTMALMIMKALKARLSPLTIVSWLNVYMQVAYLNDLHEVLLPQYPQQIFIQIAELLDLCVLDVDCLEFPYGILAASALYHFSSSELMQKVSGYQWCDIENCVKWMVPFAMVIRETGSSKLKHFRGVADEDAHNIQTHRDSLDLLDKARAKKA
| Variant | normalised enrichment score |
| --- | --- |
| F11E | 0.119 |
| L7G | 0.739 |
| L7A | 0.655 |
| F11N | 0.268 |
| S9H | 1.65 |
| S1A | 1.86 |
| S1P | 1.72 |
| S1N | 1.66 |
| E12M | 1.79 |
| S9F | 2.31 |
| D13Q | 1.82 |
| E12R | 1.65 |
| F2I | 0.219 |
| N6F | 1.48 |
| E12F | 1.51 |
| L10C | 1.57 |
| L7P | 0.274 |
| L10M | 1.38 |

Block 3
Target: PABPC1L2, full length, GST fusion (mouse, UniProt A0ABA7IW68)
Technique: RNAcompete
Molecule type: RNA
Sample: in vitro
Concentration: 20 nM
Notes: 7-mer, probes averaged, single round
Reference: mean of 7-mers
Reading: higher = stronger binding
Construct (chain): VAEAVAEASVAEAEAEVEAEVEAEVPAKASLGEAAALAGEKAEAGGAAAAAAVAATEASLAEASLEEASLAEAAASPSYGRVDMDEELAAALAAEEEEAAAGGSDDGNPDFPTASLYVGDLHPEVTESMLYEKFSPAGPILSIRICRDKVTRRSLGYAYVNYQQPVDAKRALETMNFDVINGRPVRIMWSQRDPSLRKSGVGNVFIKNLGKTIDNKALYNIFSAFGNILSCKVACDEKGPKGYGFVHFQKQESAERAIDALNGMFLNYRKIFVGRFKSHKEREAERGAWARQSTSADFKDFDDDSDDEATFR
| Oligonucleotide | 7-mer Z-score |
| --- | --- |
| GUGAGAG | -0.0047 |
| CCAGUCU | -0.311 |
| AGCCAGC | -0.208 |
| GCGGUCU | -0.155 |
| CGGCGCC | -0.461 |
| ACCACGC | -0.0663 |
| UCGCAGA | -0.269 |
| UCCUGAC | -0.248 |
| CAAGUUA | -0.0917 |
| CCUUACU | -0.342 |
| CUUCAGA | -0.175 |
| AGUUCAC | -0.179 |
| GGUGCUC | -0.0482 |
| UAGUGGA | -0.0464 |
| UCUAGAA | 0.0424 |
| UUAAUUA | -0.0156 |
| UGAGAGC | -0.17 |
| AACCCGC | -0.296 |
| CCGGAGG | -0.0464 |
| UUGGUUC | -0.304 |

Block 4
Target: Ras GTPase-activating protein-binding protein 1, full length (G3BP1, Homo sapiens, UniProt Q13283)
Sequence of UniProt Q13283 (whole entry, looked up): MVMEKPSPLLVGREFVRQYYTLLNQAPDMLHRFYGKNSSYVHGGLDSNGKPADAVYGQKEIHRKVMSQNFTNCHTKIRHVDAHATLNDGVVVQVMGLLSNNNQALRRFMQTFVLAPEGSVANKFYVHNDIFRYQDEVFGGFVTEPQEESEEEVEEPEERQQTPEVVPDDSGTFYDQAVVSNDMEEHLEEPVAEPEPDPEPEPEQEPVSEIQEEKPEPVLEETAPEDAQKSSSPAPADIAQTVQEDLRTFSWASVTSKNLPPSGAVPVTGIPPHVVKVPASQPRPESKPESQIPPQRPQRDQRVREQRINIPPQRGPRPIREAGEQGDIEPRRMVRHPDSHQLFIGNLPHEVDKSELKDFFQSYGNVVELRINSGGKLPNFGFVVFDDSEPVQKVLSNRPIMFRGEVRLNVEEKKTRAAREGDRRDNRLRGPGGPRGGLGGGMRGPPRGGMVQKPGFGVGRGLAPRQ
Technique: RNA Bind-n-Seq
Molecule type: RNA
Sample: in vitro
Concentration: 200 nM
Notes: whole 134-nt RNA, ends assumed
Added: 150 mM LiCl
Reference: input library
Reading: higher = stronger binding
Each molecule: 7-deaza-guanosine replaces G
Shared flanks, not repeated: GGGAGUUCUACAGUCCGACGAUC … UGGAAUUCUCGGGUGUCAAGG
| Oligonucleotide | log2 enrichment |
| --- | --- |
| ACCAUGCAGGUGGGCAUCUUUGGGAAGUGGGGCAAGGGGGUGAUAGGGAGGGGGGUAACACUUUGGGAACAGGUGGUCCCAGGUCGUUUC | 0.176 |
| GUCCUGUGCUACACAUCGUAUGUACCGAAUCGGUUUUUUGGUUUUUUGGUUUUUUGGGAAAGUAUUAUGUUACGCCGUUCGGAUCUGCAC | -1.09 |
| UGGGAGGUGGAUUUUGUUUAUUUAUUUAGCUCAUUUCCAGGGGUGGGAAUUUUUUUUUAAUAUGUGUCAUGAAUAAAGUUGUUUUUGAAA | -0.64 |
| UGAGUAGAUCUAGAAAUGACAGUAUGACUUUGUUUCUAACAGCUCCAAAAUGGAUCAAAAUGUUUGUUUUGGAUGAAGCAGAUGAAAUGU | -3.62 |
| ACCAUGCAGGUGGGCAUCUUUGGGAAGUGGGGCAAGGGGGGGAUAGGGAGGGGGGUAACACUUUGGGAACAGGCGGUCCCAGGUCGUUUC | 0.101 |
| GUCCUGUGCUACACAUCGUAUGUACCGAAUCGGGGAAAAAAAGGGGUGGGGUUUGGGGAAAGUAUUAUGUUACGCCGUUCGGAUCUGCAC | -0.353 |
| UACUAUGAAGCCUUGUGCAAAUCCCUCGACUGGCAGAUAGACGUGGACCUACUCAAUAAAAUGAAGAAGGCAAAUGAAGAUGAGUUGAAG | -0.913 |
| ACGCUCCAUGAAAGCUAGGAGGGAGUGAAAUAUCAGUGAUCAUCGCAAGGAAGGAGGCAGACAAGAGUAAGGCACACCUGACUCUUAGGA | -0.942 |

A few entries again (block 3):
| Oligonucleotide | 7-mer Z-score |
| --- | --- |
| CUUCAGA | -0.175 |
| CGGCGCC | -0.461 |
| UCGCAGA | -0.269 |
| GCGGUCU | -0.155 |
| UGAGAGC | -0.17 |
| CCGGAGG | -0.0464 |
| UCCUGAC | -0.248 |
